Results gathered from unrelated publications.
Protocols differ between the studies behind these lines. Values joined by “and” are separate records of one study, mostly repeats; a detail may differ. ± gives the spread as reported.
CASP3: Caspase-3 (CASP3, Homo sapiens, UniProt P42574)
Chain of UniProt P42574 (whole entry, looked up): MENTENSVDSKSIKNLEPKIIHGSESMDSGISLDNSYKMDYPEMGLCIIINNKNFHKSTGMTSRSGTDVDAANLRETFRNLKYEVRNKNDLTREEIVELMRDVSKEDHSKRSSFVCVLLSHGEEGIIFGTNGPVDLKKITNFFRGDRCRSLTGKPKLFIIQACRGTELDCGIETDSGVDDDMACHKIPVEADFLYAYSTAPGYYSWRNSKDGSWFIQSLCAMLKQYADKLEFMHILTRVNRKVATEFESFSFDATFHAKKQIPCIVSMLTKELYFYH
GBA2: Beta-glucosidase (GBA2, Homo sapiens, UniProt Q9HCG7)
Chain of UniProt Q9HCG7 (whole entry, looked up): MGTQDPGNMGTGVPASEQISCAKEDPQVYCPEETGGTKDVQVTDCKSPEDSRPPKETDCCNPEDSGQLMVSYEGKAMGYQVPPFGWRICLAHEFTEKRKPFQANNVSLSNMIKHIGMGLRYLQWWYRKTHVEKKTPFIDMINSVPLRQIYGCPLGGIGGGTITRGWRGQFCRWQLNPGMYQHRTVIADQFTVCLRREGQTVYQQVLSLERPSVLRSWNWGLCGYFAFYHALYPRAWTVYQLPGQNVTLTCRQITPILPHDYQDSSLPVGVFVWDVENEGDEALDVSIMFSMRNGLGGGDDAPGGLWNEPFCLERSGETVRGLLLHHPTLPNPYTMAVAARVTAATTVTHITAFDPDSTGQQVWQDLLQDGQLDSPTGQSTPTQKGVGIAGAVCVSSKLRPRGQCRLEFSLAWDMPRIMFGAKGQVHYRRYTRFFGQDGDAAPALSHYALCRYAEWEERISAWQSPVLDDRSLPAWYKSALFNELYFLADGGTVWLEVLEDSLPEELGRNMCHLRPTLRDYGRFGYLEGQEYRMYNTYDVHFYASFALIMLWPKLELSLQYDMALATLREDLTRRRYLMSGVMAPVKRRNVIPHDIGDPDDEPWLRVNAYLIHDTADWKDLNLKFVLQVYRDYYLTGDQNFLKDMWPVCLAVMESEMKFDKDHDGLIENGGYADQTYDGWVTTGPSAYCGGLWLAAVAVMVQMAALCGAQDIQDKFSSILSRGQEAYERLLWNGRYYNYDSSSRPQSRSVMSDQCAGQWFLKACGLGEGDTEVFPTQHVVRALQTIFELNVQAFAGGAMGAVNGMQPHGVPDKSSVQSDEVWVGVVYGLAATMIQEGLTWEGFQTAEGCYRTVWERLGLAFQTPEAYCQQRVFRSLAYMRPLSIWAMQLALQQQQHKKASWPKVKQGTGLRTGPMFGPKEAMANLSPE
T1: hairpin RNA, hairpin; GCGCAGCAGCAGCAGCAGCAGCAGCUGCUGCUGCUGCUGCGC
T2: neomycin riboswitch RNA U14C, pseudouridine at 13; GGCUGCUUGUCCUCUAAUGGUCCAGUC
Chain of UniProt Q13148 (whole entry, looked up): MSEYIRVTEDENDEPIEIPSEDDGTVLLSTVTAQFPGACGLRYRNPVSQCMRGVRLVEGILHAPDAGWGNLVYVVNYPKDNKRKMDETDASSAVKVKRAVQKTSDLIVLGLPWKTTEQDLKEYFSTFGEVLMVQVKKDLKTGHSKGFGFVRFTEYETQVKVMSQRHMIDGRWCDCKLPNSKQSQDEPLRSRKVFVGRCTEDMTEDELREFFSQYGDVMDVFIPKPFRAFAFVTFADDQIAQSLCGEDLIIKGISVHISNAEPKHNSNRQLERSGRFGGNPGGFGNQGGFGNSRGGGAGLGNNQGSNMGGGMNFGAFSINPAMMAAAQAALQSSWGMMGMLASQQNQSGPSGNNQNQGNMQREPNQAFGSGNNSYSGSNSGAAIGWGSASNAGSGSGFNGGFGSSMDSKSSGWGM
Chain of UniProt Q92633 (whole entry, looked up): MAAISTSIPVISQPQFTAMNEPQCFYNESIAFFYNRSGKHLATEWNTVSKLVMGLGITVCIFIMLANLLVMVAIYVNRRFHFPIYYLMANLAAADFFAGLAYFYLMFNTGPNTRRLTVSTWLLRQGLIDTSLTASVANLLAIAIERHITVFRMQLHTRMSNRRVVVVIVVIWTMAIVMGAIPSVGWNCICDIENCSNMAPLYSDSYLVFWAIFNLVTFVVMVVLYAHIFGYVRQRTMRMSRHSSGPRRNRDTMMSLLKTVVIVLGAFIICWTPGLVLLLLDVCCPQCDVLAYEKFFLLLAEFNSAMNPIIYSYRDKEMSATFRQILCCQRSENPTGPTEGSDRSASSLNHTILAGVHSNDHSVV
Chain of UniProt P15311 (whole entry, looked up): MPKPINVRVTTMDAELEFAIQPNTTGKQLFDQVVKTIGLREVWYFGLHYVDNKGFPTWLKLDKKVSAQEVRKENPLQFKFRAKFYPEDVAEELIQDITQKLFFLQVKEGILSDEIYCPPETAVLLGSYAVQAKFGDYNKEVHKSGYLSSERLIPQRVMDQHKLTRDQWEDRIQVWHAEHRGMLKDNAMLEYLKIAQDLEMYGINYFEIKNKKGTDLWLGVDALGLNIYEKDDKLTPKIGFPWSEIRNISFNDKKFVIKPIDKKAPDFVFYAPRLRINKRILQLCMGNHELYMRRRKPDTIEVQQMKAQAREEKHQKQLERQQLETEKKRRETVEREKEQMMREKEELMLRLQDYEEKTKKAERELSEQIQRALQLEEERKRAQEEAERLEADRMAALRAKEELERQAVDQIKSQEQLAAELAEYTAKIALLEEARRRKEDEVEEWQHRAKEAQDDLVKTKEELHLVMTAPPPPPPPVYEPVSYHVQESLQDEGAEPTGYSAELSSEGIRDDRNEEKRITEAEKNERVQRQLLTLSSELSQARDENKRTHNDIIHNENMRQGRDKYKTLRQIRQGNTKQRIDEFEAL
Chain of UniProt Q9HB29 (whole entry, looked up): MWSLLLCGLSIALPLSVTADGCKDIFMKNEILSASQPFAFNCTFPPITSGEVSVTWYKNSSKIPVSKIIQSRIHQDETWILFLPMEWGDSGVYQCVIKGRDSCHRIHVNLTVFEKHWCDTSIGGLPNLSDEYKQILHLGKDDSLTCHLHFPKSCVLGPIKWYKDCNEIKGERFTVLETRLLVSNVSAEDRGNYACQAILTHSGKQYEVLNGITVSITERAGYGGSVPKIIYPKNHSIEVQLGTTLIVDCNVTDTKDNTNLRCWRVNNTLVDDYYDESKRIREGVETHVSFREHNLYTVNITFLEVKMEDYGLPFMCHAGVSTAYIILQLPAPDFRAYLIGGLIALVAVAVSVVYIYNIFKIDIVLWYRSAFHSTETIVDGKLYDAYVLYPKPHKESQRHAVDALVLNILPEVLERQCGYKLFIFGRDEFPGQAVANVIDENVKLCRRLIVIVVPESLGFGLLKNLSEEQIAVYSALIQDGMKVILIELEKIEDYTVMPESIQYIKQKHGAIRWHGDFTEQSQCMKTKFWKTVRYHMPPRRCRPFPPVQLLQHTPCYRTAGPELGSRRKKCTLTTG
Chain of UniProt Q923J1 (whole entry, looked up): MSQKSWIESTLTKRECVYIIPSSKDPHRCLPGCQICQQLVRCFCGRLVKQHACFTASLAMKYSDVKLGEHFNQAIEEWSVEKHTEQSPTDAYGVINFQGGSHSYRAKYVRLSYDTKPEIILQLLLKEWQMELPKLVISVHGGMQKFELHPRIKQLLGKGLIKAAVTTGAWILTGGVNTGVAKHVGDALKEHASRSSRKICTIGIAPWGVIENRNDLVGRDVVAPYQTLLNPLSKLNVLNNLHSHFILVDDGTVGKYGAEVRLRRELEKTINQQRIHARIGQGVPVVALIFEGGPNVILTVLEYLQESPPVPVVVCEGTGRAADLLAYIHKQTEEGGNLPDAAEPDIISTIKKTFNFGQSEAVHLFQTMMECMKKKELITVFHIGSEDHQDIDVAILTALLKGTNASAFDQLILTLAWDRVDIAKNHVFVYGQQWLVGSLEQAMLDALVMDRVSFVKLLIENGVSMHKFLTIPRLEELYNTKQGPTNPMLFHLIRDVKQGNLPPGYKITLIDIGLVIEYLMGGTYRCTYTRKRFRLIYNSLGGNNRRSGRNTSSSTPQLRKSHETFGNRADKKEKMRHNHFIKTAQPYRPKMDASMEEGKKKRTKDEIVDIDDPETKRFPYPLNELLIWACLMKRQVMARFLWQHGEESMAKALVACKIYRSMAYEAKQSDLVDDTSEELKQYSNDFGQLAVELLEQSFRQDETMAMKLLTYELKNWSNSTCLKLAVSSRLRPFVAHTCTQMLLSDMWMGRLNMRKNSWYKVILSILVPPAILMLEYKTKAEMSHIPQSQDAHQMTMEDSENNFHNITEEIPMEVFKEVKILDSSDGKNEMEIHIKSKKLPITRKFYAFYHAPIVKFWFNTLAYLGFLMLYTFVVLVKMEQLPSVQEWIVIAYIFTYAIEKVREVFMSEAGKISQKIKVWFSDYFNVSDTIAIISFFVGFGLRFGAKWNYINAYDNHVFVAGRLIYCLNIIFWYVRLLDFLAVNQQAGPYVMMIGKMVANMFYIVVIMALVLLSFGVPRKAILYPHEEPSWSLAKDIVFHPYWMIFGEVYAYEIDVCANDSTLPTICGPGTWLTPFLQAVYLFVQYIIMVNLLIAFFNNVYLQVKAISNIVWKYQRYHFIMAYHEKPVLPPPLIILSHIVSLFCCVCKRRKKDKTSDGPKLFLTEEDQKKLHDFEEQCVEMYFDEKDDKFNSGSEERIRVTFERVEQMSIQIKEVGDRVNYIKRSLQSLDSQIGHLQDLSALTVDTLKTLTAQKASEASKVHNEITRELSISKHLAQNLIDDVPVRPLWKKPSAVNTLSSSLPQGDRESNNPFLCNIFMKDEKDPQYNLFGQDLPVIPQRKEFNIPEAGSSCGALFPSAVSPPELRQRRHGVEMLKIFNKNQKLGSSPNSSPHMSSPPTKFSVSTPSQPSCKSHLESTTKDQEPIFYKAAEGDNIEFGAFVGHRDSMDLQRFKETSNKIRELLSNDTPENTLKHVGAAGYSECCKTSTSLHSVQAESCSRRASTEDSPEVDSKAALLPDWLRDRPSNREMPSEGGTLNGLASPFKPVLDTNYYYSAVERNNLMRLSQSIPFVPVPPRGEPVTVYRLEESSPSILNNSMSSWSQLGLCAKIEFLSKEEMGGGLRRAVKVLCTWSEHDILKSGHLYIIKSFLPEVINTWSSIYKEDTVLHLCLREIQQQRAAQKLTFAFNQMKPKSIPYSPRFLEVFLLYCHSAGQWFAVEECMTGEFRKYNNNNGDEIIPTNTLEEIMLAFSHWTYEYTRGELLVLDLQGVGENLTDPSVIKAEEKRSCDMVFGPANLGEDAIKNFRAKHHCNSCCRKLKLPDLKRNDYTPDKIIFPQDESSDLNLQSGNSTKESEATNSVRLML

CC(=O)c1cccc(S(=O)(=O)n2nc(SCc3ccc(Cl)cc3)nc2N)c1
probe labeling increase (LYPLAL1 (Homo sapiens, UniProt Q5VWZ2); enzyme activity, activator, gel-based ABPP; purified protein; concentration not given, together with: FP-rhodamine; baseline: DMSO): 1.4 fold

N[C@H]1CC[C@H](Nc2nccc(-c3cccnc3Oc3ccc(NC(=O)NC4CC4)c4ccccc34)n2)CC1
log2 LFQ intensity (Ezrin (EZR, Homo sapiens, UniProt P15311); kinobead competition pulldown; HEK293/HCT116 lysate mixture; 10 µM, 1 h, 4 °C; lower = stronger competition): 23.2 and 22.6 and 23.1

O=C(NCC1CC1)c1ccc(NC(=O)C(C(F)(F)F)C(F)(F)F)cc1
IC50 (Chymotrypsinogen A (Bos taurus, UniProt P00766); enzyme activity, inhibitor): inactive

Cc1ccc2c(c1)C(O)CC1(CCN(CC(O)c3ccc4c(c3)CC(C)O4)CC1)O2 (stereo not shown)
luminescence (B4GALT1 (Homo sapiens, UniProt P15291); enzyme activity, inhibitor, UDP-Glo; 10 µM; lower means stronger inhibition): 59800 a.u.

CC(=O)N[C@@H](CO)C(=O)N[C@@H](Cc1ccccc1)C(=O)N[C@@H](C)C(=O)N[C@@H](CC(=O)O)C(=O)COC(=O)c1c(C)cccc1C
kinact/KI (CASP3; enzyme activity, inhibitor): 263000 M⁻¹ s⁻¹

OC[C@@H]1[C@@H](O)[C@H](O)[C@@H](O)CN1CCCCOCCC12CC3CC(CC(C3)C1)C2
selectivity ratio (GBA2; inhibitor, 4MU-β-D-glucopyranoside; HEK293T homogenates overexpressing GBA2; baseline: GCS IC50 over GBA2 IC50): 875

NC1(Cc2ccc(Cl)cc2)CCN(c2ncnc3[nH]ccc23)CC1
Hill coefficient (Trpm7 (Mus musculus, UniProt Q923J1); calcium influx, inhibitor, aequorin luminescence; HEK293T expressing wild-type Trpm7): 1.56 ± 0.11

CCCCCN1C[C@H](O)[C@@H](O)[C@H](O)[C@H]1CO
selectivity ratio (GBA2; inhibitor, 4MU-β-D-glucopyranoside; HEK293T homogenates overexpressing GBA2; baseline: GBA1 IC50 over GBA2 IC50): 1250

CCCC[C@H](NC(=O)[C@H](CC(C)C)NC(=O)[C@H](CCC(N)=O)NC(=O)[C@@H](NC(=O)[C@H](CCC(=O)O)NC(=O)C(C)(C)NC(=O)[C@@H](NC(=O)C1(N)CCCC1)C(C)C)[C@@H](C)CC)C(=O)N[C@@H](Cc1c[nH]cn1)C(=O)N[C@@H](CCC(N)=O)C(=O)N[C@@H](CCCCNC(=O)[C@H](CCCNC(=N)N)NC(=O)CCCCCCCCCCCCCCCCC(=O)O)C(N)=O
Emax (normalized AUC) (PTH1R (Homo sapiens, UniProt Q03431); cAMP response, agonist, GloSensor cAMP; GP-2.3; ligand-on phase): 117 ± 7%

C=CC(=O)N1CCCC(n2c(=O)c3ncccc3n(Cc3ccc(Oc4ccccc4)cc3)c2=O)C1 (stereo not shown)
melting temperature shift (MDH1 (Homo sapiens, UniProt P40925); thermal proteome profiling; cell proteome; unit not given; baseline: vehicle): 0.235

N#CN1CC[C@H](C(=O)Nc2nc3c(s2)CN(C(=O)Cn2cc(CNC(=O)CCCC[C@@H]4SC[C@@H]5NC(=O)N[C@@H]54)nn2)CC3)C1
iBAQ abundance (TYMS (Homo sapiens, UniProt P04818); probe binding, affinity probe, neutravidin pull-down LC-MS/MS; HEK293T, cell lysate; 5 µM, 1 h, mean of three replicates, unit not given; higher = more pulled down): 2.33e+08

O=C1c2sc(-c3ccc(N4CCC(CO)CC4)nc3F)nc2CCN1c1cccnc1
specific binding (TAR DNA-binding protein 43, aggregated (TARDBP, Homo sapiens, UniProt Q13148); radioligand binding; human, FTLD-TDP type C sarkosyl-insoluble extract; 4.94 nM): 0.163 nM and 0.101 nM and 0.124 nM

OC[C@H]1[C@@H](O)[C@H](O)[C@@H](O)CN1CCCCCOCCC12CC3CC(CC(C3)C1)C2
selectivity ratio (GBA2; inhibitor, 4MU-β-D-glucopyranoside; HEK293T homogenates overexpressing GBA2; baseline: GBA1 IC50 over GBA2 IC50): 333

N=C(N)c1ccc(-c2ccc(-c3ccc(C(=N)N)cc3)[nH]2)cc1
remaining activity (PRMT5 (Homo sapiens, UniProt O14744); enzyme activity, inhibitor, radiometric; 20 µM): 67.9%

CC(=O)NC(Cc1ccccc1Cl)C(=O)N1CCCC12C=CC1CCC(C(=O)N3CCC4C=CC5CCC(C(=O)O)N5C(=O)C43)N1C2=O (stereo not shown)
binding free energy (Vasodilator-stimulated phosphoprotein, EVH1 domain (VASP, Homo sapiens, UniProt P50552); fluorescence titration; 25 °C): -7.7 kcal/mol

CCCCCCCN1C[C@H](O)[C@@H](O)[C@H](O)[C@H]1CO
selectivity ratio (GBA2; inhibitor, 4MU-β-D-glucopyranoside; HEK293T homogenates overexpressing GBA2; baseline: GBA1 IC50 over GBA2 IC50): 411

C=CC(=O)N1C[C@H](C)N(c2nc(OC[C@@]34CCCN3C[C@H](F)C4)nc3c(F)c(-c4ccc(F)c5sc(N)c(C#N)c45)c(C(F)(F)F)cc23)C[C@H]1C
koff (GTPase KRas, GDP-bound (KRAS, Homo sapiens, UniProt P01116); SPR; wild type GDP-bound): 0.000748 ± 0.00011 s⁻¹

CCCCCOCCCCCN1C[C@H](O)[C@@H](O)[C@H](O)[C@@H]1CO
selectivity ratio (GBA2; inhibitor, 4MU-β-D-glucopyranoside; HEK293T homogenates overexpressing GBA2; baseline: GBA1 IC50 over GBA2 IC50): 6670

CC(C)[C@@H]1NC(=O)[C@H](Cc2ccccc2)NC(=O)CSC[C@@H](C(N)=O)NC(=O)[C@H](CCC(=O)O)NC(=O)[C@H](CO)NC(=O)[C@H](Cc2c[nH]c3cccc(Cl)c23)NC(=O)[C@H](C2CCCCC2)NC(=O)[C@H](C(C)C)NC(=O)[C@H](Cc2ccc(O)cc2)NC(=O)[C@H](CC(=O)O)NC(=O)[C@H](Cc2c[nH]c3ccccc23)NC(=O)[C@H](Cc2ccc(N)nc2)NC(=O)[C@H](Cc2c[nH]c3ccc(Cl)cc23)NC(=O)[C@H](CCC(=O)O)NC1=O
remaining activity (Interleukin-1 receptor-like 2 (IL1RL2, Homo sapiens, UniProt Q9HB29); reporter gene (SEAP), inhibitor, HEK-Blue IL-36R reporter; HEK-Blue IL-36R cells; 0.046 µM, 6 h, together with: IL-36β 100 ng/mL): 78.7%

CC(=O)N[C@@H](CC(C)C)C(=O)N[C@@H](CCC(=O)O)C(=O)N[C@@H](CCC1CCCCC1)C(=O)N[C@@H](CC(=O)O)C(=O)COC(=O)c1c(C)cccc1C
kinact/KI (CASP3; enzyme activity, inhibitor): 122000 M⁻¹ s⁻¹

OC[C@@H]1[C@@H](O)[C@H](O)[C@@H](O)CN1CCCCCOCc1ccccc1-c1ccccc1
selectivity ratio (GBA2; inhibitor, 4MU-β-D-glucopyranoside; HEK293T homogenates overexpressing GBA2; baseline: GBA1 IC50 over GBA2 IC50): 417

CC(=O)N1[C@H](C(=O)N[C@@H](CC(C)C)C(=O)N[C@@H](C)C(=O)N[C@@H](CC(=O)O)C(=O)COC(=O)c2c(C)cccc2C)C[C@@H]2CCCC[C@@H]21
kinact/KI (CASP3; enzyme activity, inhibitor): 10400 M⁻¹ s⁻¹

CCCCCCCOCCCCCN1C[C@H](O)[C@@H](O)[C@H](O)[C@@H]1CO
selectivity ratio (GBA2; inhibitor, 4MU-β-D-glucopyranoside; HEK293T homogenates overexpressing GBA2; baseline: GBA1 IC50 over GBA2 IC50): 2670

C#CCCC1(CCC(=O)N(Cc2cccc(-c3cccnc3)c2)CC2CCN(c3c(F)cc4c(=O)c(C(=O)O)cn(CC)c4c3F)C2)N=N1 (stereo not shown)
binding (T1, hairpin RNA, hairpin; gel after photo-cross-linking; covalent): no binding

OC[C@@H]1[C@@H](O)[C@H](O)[C@@H](O)CN1CCCCCOCc1ccc(-c2cncnc2)cc1
selectivity ratio (GBA2; inhibitor, 4MU-β-D-glucopyranoside; HEK293T homogenates overexpressing GBA2; baseline: GCS IC50 over GBA2 IC50): 80

CCCCCC=CC=C1C(=O)C=CC1CC=CCCCC(=O)O (stereo not shown)
isoTOP-ABPP competition ratio (RACK1 (Homo sapiens, UniProt P63244); competitive isoTOP-ABPP, measured: GNB2L1 cysteine peptide; proteome, soluble, MDA-MB-231; 100 µM, together with: iodoacetamide probe; baseline: DMSO over compound-treated, higher = stronger cysteine blockade): 2.2

NC[C@H]1O[C@H](O[C@H]2[C@H](O[C@@H]3O[C@H](CO)[C@@H](O)[C@H]3O)[C@@H](O)[C@H](N)C[C@@H]2N)[C@H](N)[C@@H](O)[C@@H]1O
Kd (T2, neomycin riboswitch RNA U14C, pseudouridine at 13; ITC; pH 6.8, 37 °C, read off a plot): 977 nM

CCN(CC)C(CO)c1cccc2c(C)c(C)oc12 (stereo not shown)
fold change (LPAR1 (Homo sapiens, UniProt Q92633); G-protein dissociation, agonist, NanoBiT; HEK-293T; 100 pM, wild-type receptor; baseline: baseline luminescence): 0.981 and 0.991 and 1.03 and 1.01 and 0.992 and 1.04
